# Experimental data from different studies.
# Protocols differ between the studies behind these lines. Values joined by “and” are separate records of one study, mostly repeats; a detail may differ.
# Organism: Staphylococcus aureus
SMILES,test,system,conditions,MIC
CC(=O)N[C@@H](CCCNC(=N)N)C(=O)N[C@@H](Cc1c[nH]c2ccccc12)C(=O)N[C@@H](CCCNC(=N)N)C(=O)N[C@@H](Cc1c[nH]c2ccccc12)C(=O)N[C@@H](Cc1c[nH]c2ccccc12)C(=O)N[C@@H](CCCCN)C(=O)N1CCC[C@H]1C(=O)N[C@H](C(N)=O)C(C)C,,"MRSA ATCC 33591, MEM medium","overnight, 37 °C",11.3 to 22.7 µM
CC(C)C[C@@H]1NC(=O)[C@@H](CC(C)C)NC(=O)[C@H](CCN)NC(=O)[C@@H](NC(=O)[C@H](CCN)NC(=O)[C@@H](NC(=O)CCOCCOCCOCCn2cc(C[C@H](NC(=O)CC[C@@H]3NC(=O)[C@H](CCN)NC(=O)[C@H](Cc4ccc(O)cc4)NC(=O)[C@H]([C@@H](C)O)NC(=O)[C@H](C(C)C)NC(=O)[C@@H]4CCCN4C(=O)[C@@H](C)NC(=O)[C@H](CO)NC(=O)[C@H](C)NC(=O)[C@H](C(C)(C)C)NC(=O)[C@H](CCO)NC(=O)[C@H](Cc4c[nH]c5ccccc45)NC(=O)[C@H](CCO)NC(=O)[C@@H](CCN)NC3=O)C(N)=O)nn2)[C@@H](C)O)CCNC(=O)[C@H]([C@@H](C)O)NC(=O)[C@H](CCN)NC(=O)[C@H](CCN)NC1=O,broth microdilution,"MRSA USA300, CAMHB with polysorbate-80",16 h,> 64 µg/mL
CC[C@H](C)[C@H](NC(=O)CNC(=O)[C@H](CC(N)=O)NC(=O)[C@H](CCCNC(=N)N)NC(=O)[C@H](CS)NC(=O)[C@H](CCCNC(=N)N)NC(=O)CNC(=O)CNC(=O)[C@H](CCCCN)NC(=O)[C@H](Cc1ccc(O)cc1)NC(=O)[C@H](CCCNC(=N)N)NC(=O)[C@H](CCCCN)NC(=O)[C@@H](NC(=O)[C@H](CC(C)C)NC(=O)[C@H](CS)NC(=O)[C@H](Cc1c[nH]cn1)NC(=O)[C@H](C)NC(=O)[C@H](C)NC(=O)[C@H](CS)NC(=O)[C@H](C)NC(=O)[C@H](CO)NC(=O)[C@H](Cc1c[nH]cn1)NC(=O)[C@H](CC(N)=O)NC(=O)[C@H](CC(C)C)NC(=O)[C@H](CO)NC(=O)CNC(=O)[C@H](Cc1c[nH]c2ccccc12)NC(=O)[C@@H]1CCCN1C(=O)[C@@H](NC(=O)[C@H](CO)NC(=O)[C@H](C)NC(=O)[C@H](CO)NC(=O)[C@H](CC(C)C)NC(=O)[C@H](CC(C)C)NC(=O)[C@H](CC(=O)O)NC(=O)[C@H](CS)NC(=O)[C@@H](NC(=O)[C@H](C)N)[C@@H](C)O)[C@@H](C)O)[C@@H](C)O)C(=O)N[C@@H](CS)C(=O)N[C@@H](CCCNC(=N)N)C(=O)N[C@@H](CS)C(=O)N[C@@H](CCCNC(=N)N)C(=O)N[C@@H](CCCNC(=N)N)C(N)=O,,ATCC 29213,,35 µg/mL
CCCCCCCCCCCCCC(=O)N[C@H](CCN)C(=O)N[C@H](C(=O)N[C@@H](CCN)C(=O)N[C@@H](CC(C)C)C(=O)N[C@H]1CCNC(=O)[C@H](CC(=O)O)NC(=O)[C@H](C(C)C)NC(=O)[C@@H](Cc2ccc(O)cc2)NC(=O)[C@H](CCN)NC(=O)[C@H](CC(C)C)NC(=O)[C@@H](Cc2ccccc2)NC1=O)[C@@H](C)O,broth microdilution,BNCC 186335,,4 µg/mL
CC[C@H](C)[C@H](NC(=O)[C@H](CCN)NC(=O)CCCCCCCCCCCNC(=O)CCCCCOC(=O)c1cn(C2CC2)c2cc(N3CCNCC3)c(F)cc2c1=O)C(=O)N[C@@H](CCN)C(=O)N[C@H](Cc1ccccc1)C(=O)N[C@@H](CC(C)C)C(=O)N[C@@H](CCN)C(=O)N[C@@H](C(=O)N[C@@H](CC(C)C)C(=O)N[C@@H](CO)C(N)=O)C(C)C,,,"24 h, 37 °C",6.25 µM and 3.12 µM
NNc1ccc(Cl)cc1Cl,microbial growth,ATCC700699,drug-resistant strain,25 µg/mL
CN1C(=O)[C@@H]2NC(=O)[C@@H]3NC(=O)[C@@H](c4ccc(O)cc4)NC(=O)[C@H](NC(=O)C(NCc4cccc(F)c4F)c4ccc(O)cc4)Cc4c[nH]c5cc(ccc45)-c4cc3cc(c4O)Oc3ccc(cc3)C[C@H]1C(=O)N[C@@H](C(=O)O)c1ccc(O)c(c1)Oc1ccc2cc1 (stereo partly shown),,"ATCC 33591 MRSA, Mueller-Hinton broth",,16 µg/mL
CC[C@H](C)[C@H](N)C1=N[C@H](C(=O)N[C@@H](Cc2ccccc2)C(=O)N[C@H](CCC(=O)O)C(=O)N[C@H](C(=O)N[C@H]2CCCCNC(=O)[C@H](CC(N)=O)NC(=O)[C@@H](CC(=O)O)NC(=O)[C@H](Cc3c[nH]cn3)NC(=O)[C@@H](Cc3ccccc3)NC(=O)[C@H]([C@@H](C)CC)NC(=O)[C@@H](CCCN)NC2=O)[C@@H](C)CC)CS1,broth microdilution,"ATCC 29213, LB medium","18 h, 37 °C, together with: ZnSO4 0.3 mM",2 µg/mL
CCCCCCCCCCCCC(=O)O.O=C1CCCC2C3CCCN4CCCC(CN12)C34 (stereo not shown),"bacterial growth, broth dilution",ATCC 29213,,inactive
CC[C@@H]1NC(=O)[C@@H]([C@@H](C)O)NC(=O)CNC(=O)[C@H](CC(=O)O)NC(=O)CNC(=O)[C@H](CC(=O)O)NC(=O)CNC(=O)[C@H]2CCCCN2C(=O)[C@@H](NC(=O)[C@H](CC(=O)O)NC(=O)/C=C/CCCCCCCCCC(C)C)CNC(=O)[C@@H]2CCCN2C1=O,,MRSA USA300,together with: Ca2+ 10 mM,8 µg/mL
CC(C)C[C@@H]1NC(=O)[C@H](C)NC(=O)[C@H](NC(=O)[C@H](CO)NC(=O)[C@@H](CCCCN)NC(=O)[C@@H](CC(C)C)NC(=O)[C@@H](N)Cc2ccccc2)[C@H](C)OC(=O)[C@H](CC(C)C)NC1=O,,MRSA ATCC 700698,TFA salt,8 µg/mL
CCCO[C@H]1[C@H](O)[C@@H](N)[C@@H](O[C@H]2[C@H](O[C@@H]3O[C@H](CO)[C@@H](O[C@H]4O[C@@H](CN)[C@@H](O)[C@H](O)[C@H]4N)[C@H]3O)[C@@H](O)[C@H](N)C[C@@H]2N)O[C@@H]1CO,broth microdilution,MRSA isolate AG 039,,16 µg/mL
NC(=O)c1c(F)ccc(OCc2nc3cc(Cl)cnc3s2)c1F,"microbial growth, broth dilution",ATCC29213,,1 µg/mL
CC(C)C[C@H](NC(=O)[C@H](CC(C)C)NC(=O)[C@H](CCCNC(=N)N)NC(=O)[C@H](CCCNC(=N)N)NC(=O)[C@H](CC(C)C)NC(=O)[C@H](CC(C)C)NC(=O)[C@H](CCCNC(=N)N)NC(=O)CCCCCNC(=O)/C=C/c1ccc(O)c(O)c1)C(=O)N[C@@H](CCCNC(=N)N)C(N)=O,broth microdilution,ATCC 25923,"24 h, 37 °C",73 µM
COc1cc(/C=N/N2C(=O)c3ccccc3NC2c2ccc(O)c(OC)c2)ccc1O (stereo not shown),"microbial growth, broth dilution",MRSA,"24 h, drug-resistant strain, clinical isolate",> 256 µg/mL
CN[C@@H]1[C@H](O)[C@H](NC)[C@H]2O[C@]3(O)[C@H](O[C@@H]2[C@H]1O)O[C@H](C)C[C@@]3(O)CNCc1ccc(Cl)cc1,,MSSA ATCC 29213,,25 to 50 µg/mL
CCC(O)CC#Cc1ccc(-n2nnc(/C(C)=N\NC(=N)N)c2C)cc1 (stereo not shown),broth microdilution,MRSA USA300 NRS384,,> 64 µg/mL
CC[C@H](C)[C@@H]1NC(=O)CNC(=O)[C@H](CCCCN)NC(=O)[C@H](C)NC(=O)[C@H](CCC(=O)O)NC(=O)[C@H](Cc2ccccc2)NC(=O)[C@H](CO)NC(=O)[C@H](CC(C)C)NC(=O)[C@H](C(C)C)NC(=O)[C@H](CC(=O)O)NC(=O)[C@@H](NC(=O)[C@@H](NC(=O)[C@@H](N)C(C)C)[C@@H](C)O)CSSC[C@@H]2NC(=O)[C@H](CO)NC(=O)CNC(=O)CNC(=O)[C@H](CCCCN)NC(=O)[C@H](CCCCN)NC(=O)[C@H](CCCNC(=N)N)NC(=O)[C@H](CC(C)C)NC(=O)[C@H](C)NC(=O)[C@H]([C@@H](C)CC)NC(=O)[C@H](CSSC[C@@H](C(=O)N[C@@H](CCCNC(=N)N)C(=O)N[C@@H](CC(N)=O)C(=O)O)NC(=O)[C@H](C(C)C)NC(=O)[C@H](C)NC(=O)[C@H](C(C)C)NC(=O)CNC(=O)[C@H](CC(N)=O)NC(=O)[C@H](CCC(N)=O)NC2=O)NC(=O)[C@H](Cc2c[nH]cn2)NC(=O)[C@H](CC(C)C)NC(=O)[C@H](C)NC(=O)[C@H](C)NC(=O)[C@H](C)NC(=O)[C@H](CO)NC(=O)[C@H](Cc2c[nH]cn2)NC(=O)[C@H](CC(N)=O)NC(=O)[C@H](C(C)C)NC(=O)[C@H](C)NC1=O,broth microdilution,KCTC 1621,"16 h, 37 °C",> 100 µM
COc1ccc2cc3[n+](cc2c1OCCCOc1ccc(Cl)cc1)CCc1cc2c(cc1-3)OCO2,microbial growth,ATCC29247,"drug-resistant strain, clinical isolate",2 µg/mL

# Some of these lines once more:
SMILES,test,system,conditions,MIC
CCCO[C@H]1[C@H](O)[C@@H](N)[C@@H](O[C@H]2[C@H](O[C@@H]3O[C@H](CO)[C@@H](O[C@H]4O[C@@H](CN)[C@@H](O)[C@H](O)[C@H]4N)[C@H]3O)[C@@H](O)[C@H](N)C[C@@H]2N)O[C@@H]1CO,broth microdilution,MRSA isolate AG 039,,16 µg/mL
